Published values gathered from unrelated publications.
A part holds a random share of what one study measured.
Sequence of UniProt P10721 (whole entry, unmodified, looked up): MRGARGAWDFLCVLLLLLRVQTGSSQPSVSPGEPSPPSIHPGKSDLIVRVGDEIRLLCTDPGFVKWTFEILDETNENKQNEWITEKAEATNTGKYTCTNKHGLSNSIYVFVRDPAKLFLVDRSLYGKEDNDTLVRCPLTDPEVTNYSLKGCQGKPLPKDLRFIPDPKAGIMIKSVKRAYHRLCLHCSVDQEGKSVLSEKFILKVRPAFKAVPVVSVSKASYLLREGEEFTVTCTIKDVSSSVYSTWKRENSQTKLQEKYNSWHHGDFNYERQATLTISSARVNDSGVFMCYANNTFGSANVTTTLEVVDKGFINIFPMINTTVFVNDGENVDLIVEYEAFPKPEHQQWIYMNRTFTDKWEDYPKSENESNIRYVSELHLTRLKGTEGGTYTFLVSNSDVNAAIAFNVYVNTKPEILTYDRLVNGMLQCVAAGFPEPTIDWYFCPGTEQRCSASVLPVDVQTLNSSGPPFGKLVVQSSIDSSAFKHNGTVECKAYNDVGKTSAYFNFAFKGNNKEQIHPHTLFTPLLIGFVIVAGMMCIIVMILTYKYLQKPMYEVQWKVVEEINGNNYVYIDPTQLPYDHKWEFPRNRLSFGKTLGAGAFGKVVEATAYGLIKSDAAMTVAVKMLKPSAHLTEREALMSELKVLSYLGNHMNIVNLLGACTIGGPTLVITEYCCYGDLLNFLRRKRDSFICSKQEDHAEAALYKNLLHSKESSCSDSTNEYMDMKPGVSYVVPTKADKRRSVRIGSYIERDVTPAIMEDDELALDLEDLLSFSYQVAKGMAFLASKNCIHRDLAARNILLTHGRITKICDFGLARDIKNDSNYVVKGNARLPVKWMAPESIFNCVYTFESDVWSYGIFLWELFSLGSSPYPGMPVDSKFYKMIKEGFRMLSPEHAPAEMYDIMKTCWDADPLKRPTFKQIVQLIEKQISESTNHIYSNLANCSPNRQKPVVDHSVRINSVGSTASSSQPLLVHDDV
Sequence of UniProt Q14012 (whole entry, looked up): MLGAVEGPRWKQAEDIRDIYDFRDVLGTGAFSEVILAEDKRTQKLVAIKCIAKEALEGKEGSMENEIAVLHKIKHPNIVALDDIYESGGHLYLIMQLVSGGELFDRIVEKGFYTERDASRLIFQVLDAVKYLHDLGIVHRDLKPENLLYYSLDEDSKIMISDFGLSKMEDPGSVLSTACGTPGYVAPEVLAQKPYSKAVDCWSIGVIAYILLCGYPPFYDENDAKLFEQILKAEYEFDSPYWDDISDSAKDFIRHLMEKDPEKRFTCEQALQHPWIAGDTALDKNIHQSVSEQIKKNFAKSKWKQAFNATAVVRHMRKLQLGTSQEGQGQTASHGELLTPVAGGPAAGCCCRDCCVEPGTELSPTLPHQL
Sequence of UniProt Q9UQM7 (whole entry, looked up): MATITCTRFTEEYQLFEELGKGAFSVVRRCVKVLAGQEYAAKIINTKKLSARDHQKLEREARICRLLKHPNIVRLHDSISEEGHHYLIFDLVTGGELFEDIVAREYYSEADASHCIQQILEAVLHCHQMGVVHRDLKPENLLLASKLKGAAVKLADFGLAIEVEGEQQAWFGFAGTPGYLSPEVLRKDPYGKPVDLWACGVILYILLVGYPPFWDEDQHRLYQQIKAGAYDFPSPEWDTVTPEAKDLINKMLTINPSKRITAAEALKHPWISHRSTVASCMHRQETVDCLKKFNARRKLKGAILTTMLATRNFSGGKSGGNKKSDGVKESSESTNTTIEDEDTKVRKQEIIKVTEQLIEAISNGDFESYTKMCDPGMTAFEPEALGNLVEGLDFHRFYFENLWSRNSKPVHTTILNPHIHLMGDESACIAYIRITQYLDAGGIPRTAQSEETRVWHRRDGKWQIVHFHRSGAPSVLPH
Sequence of UniProt P51812 (whole entry, looked up): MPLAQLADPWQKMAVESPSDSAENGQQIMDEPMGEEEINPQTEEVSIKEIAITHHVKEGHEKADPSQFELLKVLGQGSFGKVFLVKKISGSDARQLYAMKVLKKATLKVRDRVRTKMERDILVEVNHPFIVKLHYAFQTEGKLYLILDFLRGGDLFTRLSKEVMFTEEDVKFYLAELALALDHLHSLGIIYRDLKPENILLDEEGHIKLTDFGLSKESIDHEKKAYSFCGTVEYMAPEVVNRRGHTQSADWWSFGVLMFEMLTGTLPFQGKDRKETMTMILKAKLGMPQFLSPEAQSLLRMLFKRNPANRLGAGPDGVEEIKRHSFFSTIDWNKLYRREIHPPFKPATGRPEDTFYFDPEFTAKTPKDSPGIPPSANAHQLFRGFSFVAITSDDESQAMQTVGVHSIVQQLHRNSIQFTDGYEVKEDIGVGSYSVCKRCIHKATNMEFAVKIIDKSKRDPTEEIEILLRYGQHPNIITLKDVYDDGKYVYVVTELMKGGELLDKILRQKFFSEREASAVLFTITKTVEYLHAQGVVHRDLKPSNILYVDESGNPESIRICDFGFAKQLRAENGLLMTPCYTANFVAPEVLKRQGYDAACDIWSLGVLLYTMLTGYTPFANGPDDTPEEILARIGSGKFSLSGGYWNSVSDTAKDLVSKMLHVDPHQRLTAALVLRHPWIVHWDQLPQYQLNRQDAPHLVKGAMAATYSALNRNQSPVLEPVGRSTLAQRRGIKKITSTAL
Sequence of UniProt O00329 (whole entry, looked up): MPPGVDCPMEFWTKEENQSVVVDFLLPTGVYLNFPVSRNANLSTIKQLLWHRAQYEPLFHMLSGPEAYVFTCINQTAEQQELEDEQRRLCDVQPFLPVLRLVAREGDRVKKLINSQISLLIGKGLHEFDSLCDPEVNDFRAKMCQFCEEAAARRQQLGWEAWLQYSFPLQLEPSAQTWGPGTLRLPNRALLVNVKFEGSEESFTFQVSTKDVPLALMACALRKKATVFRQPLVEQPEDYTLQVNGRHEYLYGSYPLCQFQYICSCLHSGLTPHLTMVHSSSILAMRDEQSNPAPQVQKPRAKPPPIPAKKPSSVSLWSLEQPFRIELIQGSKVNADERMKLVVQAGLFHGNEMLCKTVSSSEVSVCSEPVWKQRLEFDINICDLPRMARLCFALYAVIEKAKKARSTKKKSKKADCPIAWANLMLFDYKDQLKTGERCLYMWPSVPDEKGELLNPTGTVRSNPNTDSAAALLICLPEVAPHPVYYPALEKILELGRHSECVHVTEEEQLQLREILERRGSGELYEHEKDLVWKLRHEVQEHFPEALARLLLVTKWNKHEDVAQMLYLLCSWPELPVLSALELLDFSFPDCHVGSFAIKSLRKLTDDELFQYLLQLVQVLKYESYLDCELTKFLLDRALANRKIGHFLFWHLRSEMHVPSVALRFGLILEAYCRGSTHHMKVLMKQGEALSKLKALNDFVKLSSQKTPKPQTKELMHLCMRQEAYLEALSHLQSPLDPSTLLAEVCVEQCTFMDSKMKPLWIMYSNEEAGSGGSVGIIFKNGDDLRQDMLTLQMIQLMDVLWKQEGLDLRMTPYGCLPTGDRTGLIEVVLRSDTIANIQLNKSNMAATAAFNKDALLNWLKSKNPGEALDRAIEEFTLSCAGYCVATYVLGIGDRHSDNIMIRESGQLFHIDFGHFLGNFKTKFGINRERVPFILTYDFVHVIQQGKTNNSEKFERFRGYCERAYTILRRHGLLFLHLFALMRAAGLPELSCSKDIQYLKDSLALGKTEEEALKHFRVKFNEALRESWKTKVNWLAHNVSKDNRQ
Sequence of UniProt P78362 (whole entry, looked up): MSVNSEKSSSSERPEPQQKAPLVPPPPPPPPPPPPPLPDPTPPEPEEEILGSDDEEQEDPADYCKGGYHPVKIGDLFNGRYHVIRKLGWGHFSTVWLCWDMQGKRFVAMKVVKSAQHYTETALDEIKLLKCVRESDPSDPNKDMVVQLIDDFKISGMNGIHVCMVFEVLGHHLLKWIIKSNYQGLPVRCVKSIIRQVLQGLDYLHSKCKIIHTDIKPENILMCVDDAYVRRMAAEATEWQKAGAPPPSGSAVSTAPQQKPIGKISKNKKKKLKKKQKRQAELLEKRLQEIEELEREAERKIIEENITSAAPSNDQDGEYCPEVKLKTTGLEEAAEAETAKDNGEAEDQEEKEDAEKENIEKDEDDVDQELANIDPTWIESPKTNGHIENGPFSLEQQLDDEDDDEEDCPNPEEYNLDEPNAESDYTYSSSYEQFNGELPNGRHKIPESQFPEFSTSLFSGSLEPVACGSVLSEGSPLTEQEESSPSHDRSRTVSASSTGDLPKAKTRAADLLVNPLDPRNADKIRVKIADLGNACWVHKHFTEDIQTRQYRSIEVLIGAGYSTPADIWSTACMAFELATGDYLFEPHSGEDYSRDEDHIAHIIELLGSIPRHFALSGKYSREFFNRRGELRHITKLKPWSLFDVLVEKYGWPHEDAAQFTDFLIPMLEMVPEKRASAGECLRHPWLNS
Sequence of UniProt P07947 (whole entry, looked up): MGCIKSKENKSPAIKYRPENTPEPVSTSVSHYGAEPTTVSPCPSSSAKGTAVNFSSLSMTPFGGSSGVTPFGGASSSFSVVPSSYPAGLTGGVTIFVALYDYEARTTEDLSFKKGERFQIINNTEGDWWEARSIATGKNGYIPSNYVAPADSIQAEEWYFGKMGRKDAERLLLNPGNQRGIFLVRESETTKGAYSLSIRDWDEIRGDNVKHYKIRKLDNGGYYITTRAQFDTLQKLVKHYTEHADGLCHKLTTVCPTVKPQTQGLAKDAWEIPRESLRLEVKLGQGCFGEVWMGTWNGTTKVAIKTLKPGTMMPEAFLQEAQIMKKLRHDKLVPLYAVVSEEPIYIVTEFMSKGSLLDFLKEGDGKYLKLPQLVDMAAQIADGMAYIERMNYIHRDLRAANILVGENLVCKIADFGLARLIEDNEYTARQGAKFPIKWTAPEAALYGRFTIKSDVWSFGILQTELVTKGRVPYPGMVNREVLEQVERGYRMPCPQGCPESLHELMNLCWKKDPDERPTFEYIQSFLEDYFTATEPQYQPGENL

Study 1 — technique: two-hybrid; baseline: out of 4 tests; reading: higher = firmer interaction
Partner: ARF13 (Arabidopsis thaliana, UniProt Q9FX25)
B1: IAA33 (Arabidopsis thaliana, UniProt Q9FKM7); chain MNSFEPQSQDSLQRRFHQDNSTTQQPRDTTTPFIPKPASKNHNNSNSSSGAAGRSFQGFGLNVEDDLVSSVVPPVTVVLEGRSICQRISLDKHGSYQSLASALRQMFVDGADSTDDLDLSNAIPGHLIAYEDMENDLLLAGDLTWKDFVRVAKRIRILPVKGNTRQVKRNE
B2: ARF10 575-693 (Arabidopsis thaliana, UniProt Q9SKN5); chain LQGLETGHCKVFMESEDVGRTLDLSVIGSYQELYRKLAEMFHIEERSDLLTHVVYRDANGVIKRIGDEPFSDFMKATKRLTIKMDIGGDNVRKTWITGIRTGENGIDASTKTGPLSIFA
B3: ARF1 538-665 (Arabidopsis thaliana, UniProt Q8L7G0); chain SRQIRSCTKVHMQGSAVGRAIDLTRSECYEDLFKKLEEMFDIKGELLESTKKWQVVYTDDEDDMMMVGDDPWNEFCGMVRKIFIYTPEEVKKLSPKNKLAVNARMQLKADAEENGNTEGRSSSMAGSR
B4: IAA28 (Arabidopsis thaliana, UniProt Q9XFM0); chain MEEEKRLELRLAPPCHQFTSNNNINGSKQKSSTKETSFLSNNRVEVAPVVGWPPVRSSRRNLTAQLKEEMKKKESDEEKELYVKINMEGVPIGRKVNLSAYNNYQQLSHAVDQLFSKKDSWDLNRQYTLVYEDTEGDKVLVGDVPWEMFVSTVKRLHVLKTSHAFSLSPRKHGKE
Target sequence (chain): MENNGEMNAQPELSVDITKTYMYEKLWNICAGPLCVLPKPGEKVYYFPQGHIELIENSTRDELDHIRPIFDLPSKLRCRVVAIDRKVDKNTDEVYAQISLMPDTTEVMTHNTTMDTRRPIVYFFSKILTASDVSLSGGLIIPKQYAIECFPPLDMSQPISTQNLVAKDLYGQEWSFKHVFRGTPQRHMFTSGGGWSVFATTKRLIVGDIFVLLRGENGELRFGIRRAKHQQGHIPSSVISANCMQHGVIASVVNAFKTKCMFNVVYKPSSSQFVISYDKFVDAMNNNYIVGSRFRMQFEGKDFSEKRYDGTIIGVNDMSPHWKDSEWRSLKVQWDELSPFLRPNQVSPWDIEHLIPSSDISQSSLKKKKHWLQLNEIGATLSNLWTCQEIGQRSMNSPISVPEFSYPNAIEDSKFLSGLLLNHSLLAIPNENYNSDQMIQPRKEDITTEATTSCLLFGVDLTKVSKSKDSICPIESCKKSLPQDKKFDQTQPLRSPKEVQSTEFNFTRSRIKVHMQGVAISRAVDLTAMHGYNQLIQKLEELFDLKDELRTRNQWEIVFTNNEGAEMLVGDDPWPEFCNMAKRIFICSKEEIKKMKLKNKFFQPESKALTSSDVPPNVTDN
The positive tests of `B1 (IAA33)` is reported as 1.
`B2 (ARF10 575-693)` has a positive tests of 0.
`B3 (ARF1 538-665)` gave a positive tests of 0.
The positive tests of `B4 (IAA28)` is reported as 0.

Study 2 — effect on: cell-free assay; technique: competition with immobilised ligand; concentration: 1 µM
Compound: NS(=O)(=O)c1cc(NC(=O)C2(c3ccccc3Cl)CC2)ccc1Oc1cccc(Cl)c1
The remaining binding was 93% (Mast/stem cell growth factor receptor Kit (KIT, Homo sapiens, UniProt P10721, D816V)).
For Mast/stem cell growth factor receptor Kit (KIT, Homo sapiens, UniProt P10721): remaining binding read 90%.
For Phosphatidylinositol 4,5-bisphosphate 3-kinase catalytic subunit delta isoform (PIK3CD, Homo sapiens, UniProt O00329): remaining binding read 99%.
It gave 91% for remaining binding (Homeodomain-interacting protein kinase 1 (HIPK1, Homo sapiens, UniProt Q86Z02)).
It gave 90% for remaining binding (Tyrosine-protein kinase Yes (YES1, Homo sapiens, UniProt P07947)).
The remaining binding was 97% (Calcium/calmodulin-dependent protein kinase type II subunit alpha (CAMK2A, Homo sapiens, UniProt Q9UQM7)).
SRSF protein kinase 2 (SRPK2, Homo sapiens, UniProt P78362) — remaining binding: 100%.

Study 3 — effect on: enzyme activity; mode: inhibitor; concentration: 0.5 µM; baseline: control
Compound: CN([C@@H](Cc1ccc(OS(=O)(=O)c2cccc3cnccc23)cc1)C(=O)N1CCN(c2ccccc2)CC1)S(=O)(=O)c1cccc2cnccc12
Calcium/calmodulin-dependent protein kinase type 1 (CAMK1, Homo sapiens, UniProt Q14012) — remaining activity: 105%.
Mitogen-activated protein kinase kinase kinase 20 (MAP3K20, Homo sapiens, UniProt Q9NYL2) — remaining activity: 103%.
It gave 105% for remaining activity (Insulin-like growth factor 1 receptor (IGF1R, Homo sapiens, UniProt P08069)).
It gave 98.6% for remaining activity (Ribosomal protein S6 kinase alpha-3 (RPS6KA3, Homo sapiens, UniProt P51812)).

Other studies, line by line
The logD of `CCC[C@H]1NC(=O)CSC[C@@H](C(=O)OCC)N(C)C(=O)[C@H](CC(C)C)NC(=O)[C@@H](C)N(C)C(=O)[C@@H](CC(C)C)NC(=O)[C@H](C)N(C)C(=O)[C@H]2CCCN2C(=O)[C@@H](CC(C)C)NC(=O)CN(C)C1=O` is reported as -0.132 (hydrocarbon/water).
